Assay results collected from several papers.
A part holds a random share of what one study measured.

Study 1
Target: Sal-like protein 4, full length isoform A (SALL4, Homo sapiens, UniProt Q9UJQ4, residues 1-1053)
UniProt Q9UJQ4, sequence (whole entry, looked up): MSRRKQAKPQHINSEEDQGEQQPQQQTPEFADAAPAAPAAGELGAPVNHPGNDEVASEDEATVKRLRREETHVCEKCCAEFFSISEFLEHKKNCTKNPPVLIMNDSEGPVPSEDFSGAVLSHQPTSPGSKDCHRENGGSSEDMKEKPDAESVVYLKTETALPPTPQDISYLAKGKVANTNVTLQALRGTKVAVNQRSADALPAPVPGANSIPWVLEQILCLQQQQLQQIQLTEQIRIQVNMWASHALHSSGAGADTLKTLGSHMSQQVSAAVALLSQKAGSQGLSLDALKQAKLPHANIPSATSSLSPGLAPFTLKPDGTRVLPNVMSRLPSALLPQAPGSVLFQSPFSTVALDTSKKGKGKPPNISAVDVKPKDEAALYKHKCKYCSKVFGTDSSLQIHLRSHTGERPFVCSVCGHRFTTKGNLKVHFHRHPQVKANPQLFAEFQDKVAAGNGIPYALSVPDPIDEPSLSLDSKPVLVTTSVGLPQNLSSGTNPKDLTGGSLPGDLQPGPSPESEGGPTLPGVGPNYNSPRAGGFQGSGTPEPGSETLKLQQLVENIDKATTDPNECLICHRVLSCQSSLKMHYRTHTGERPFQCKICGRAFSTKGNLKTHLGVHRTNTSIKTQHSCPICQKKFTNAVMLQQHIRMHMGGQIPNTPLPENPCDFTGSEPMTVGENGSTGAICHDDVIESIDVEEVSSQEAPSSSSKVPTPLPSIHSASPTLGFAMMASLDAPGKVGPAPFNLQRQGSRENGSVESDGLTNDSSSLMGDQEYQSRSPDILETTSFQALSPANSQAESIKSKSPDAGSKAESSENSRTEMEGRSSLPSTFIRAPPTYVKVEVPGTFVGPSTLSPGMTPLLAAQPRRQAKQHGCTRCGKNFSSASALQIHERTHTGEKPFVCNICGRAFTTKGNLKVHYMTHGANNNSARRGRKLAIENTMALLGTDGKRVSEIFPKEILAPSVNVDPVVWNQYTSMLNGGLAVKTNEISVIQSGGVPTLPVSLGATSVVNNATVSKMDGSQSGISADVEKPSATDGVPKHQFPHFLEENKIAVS
Method: universal PBM
Form: double-stranded DNA, one strand shown
Matrix: in vitro
Concentration: 600 nM
Setting: 8-mer, flanks averaged, mean of replicates
Reading: higher = stronger binding
Quantity: E-score
CGGCTTCC: -0.302
GGGTGCAA: -0.168
CTGAATGC: -0.11
ATCTTAAA: 0.19
ATTGATGC: 0.175
AGGCCCAC: -0.35
GGCAGGAA: -0.09
CCGCAGTC: -0.252
GCTGCTCC: -0.344
ACCCACTG: -0.249
GACCCAGA: -0.294
ACCTCCAG: -0.0919
AGGGCAGC: -0.318
AGAAGTCT: 0.02
ACTGCTCG: -0.0756
CGCGTACG: 0.0615
TCGAACGA: -0.0519
ACCATACG: 0.0448
AATGGCGG: -0.254
AAGCTGTC: -0.0783
CGTGTATC: -0.0704
AGAACACC: -0.107

Study 2
Target: RNA binding protein fox-1 homolog 2, RRM domain, GST-SBP tag (RBFOX2, Homo sapiens, UniProt O43251-10, residues 100-194)
Method: RNA Bind-n-Seq
Form: RNA
Matrix: in vitro
Concentration: 365 nM
Setting: natural RNA segment, single round, ends assumed
Baseline: no-protein control
Reading: higher = stronger binding
Quantity: RBNS enrichment (R)
All sequences stand within: GGGAGUUCUACAGUCCGACGAUC … UGGAAUUCUCGGGUGCCAA
Target sequence (chain): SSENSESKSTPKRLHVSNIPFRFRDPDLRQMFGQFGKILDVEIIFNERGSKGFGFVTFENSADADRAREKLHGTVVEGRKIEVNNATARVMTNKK
UCUGCCGAGUGAGGGCGGCUCCCCAGGGACCAGAGGAAGCCGGGAAAAGAGGCCCAUGGCGUCGAGCCCAGCCCUGACCGCCAGCUGGCUGAGGUCGUGCCCUGCUGGGC: 0.556
GUUUUGUUUUGAGACAGUGUCUCACUUUGUAGCUGUGGCUAUCCUGGAACUCAAUCAGUAGAUGCCCAGAGAUGAUGUGCCUGCCUCUGCCGUCCAAUGCUGGGAUUGAA: 1.85
UUUCUUUAUUAAAAUUACUUUUAUCUUAUAAAAUCAACUAAUCAAAAAUGAUAUAGACGACAGCACUGGCUCUGUGAAGGUGGCAUCUUUCUGGGCAGGCAGGCCAUGGG: 0.574
CCUGAAUAAAGAUGGGCUCUGAAAGGGGACUUCUGAGCAGGCCUAACUGUAGUCCUGGAAGUCUGAAGAAAGGGGGAGGGCAUCAUGGGUCAGCAGCACUGGGUGUCUAG: 0.967
UACCCACCAAUGUCUCUGGGUUUUGUACCAGUCCCUGCUCUCAGGCCACCCUGCCCAGGACCCAGGCCCGCCUCCCCCUCCACACUCAGGAUGUCCUGCUCCAUCUGGCC: 0.563
CUUCUUUUCUUUCAAAGACUUAUUUAUUUUAUGUAUACGAGUACACUGUAGCUGUCUUCAGACACACUAGAAGAGGGCAUCAGAUUCCAUUACAGAUGGUUGUGAGCCGC: 0.298
CAGCUAUCAGGUGCUAUGUAACUCCCUAGUGCUCUUACAUAGUUUUAUUUGCAGGACUAGAAUAAAAAGUUUAAACAUUACAGUAUUUCUGAGCAAACAAAUGUGCUCCA: 0.822
AACCAAGAUGUAAAACAAGAAAUGCUUUGAGGCUUUCUAAGCGAUCCUCCUGUCUAAUUUGCACCUUUGUCUGGAUGCACACUUCUGACCUUGCUGCCACAACCUGUGGG: 0.359
GCUGAGGUUCCUCCAAGCAACCACCUUCUCCAGGCCCCUGGGGUGUUGAAAGUCAAAUGUGGCUGUUGAGUCCACAGACCCCCAUCCUAAUUCCUGCACCUGGAGGAGUU: 0.458
GGUGUCACAAUGUAGGGUACCAAGGGUUGGAUUGUGAUGGGGCAUGGUCGUACACUGCUCAUUGUGCCACAGGUGUGACUGGAAAGCAUGAUAUUCUAGGGUUGGUUUGU: 14
UGUUUCCUACAGUGGGGGCCUGUGGGGUUGAGUCUUGAGGAAUCCCCUCAAAUGAGAAGGCCUUGGGAGAAGGCCUCAUCUCUGGCUGUUUCAUGAGCAACUCAUUCCUA: 0.68
CCACACUGGUGGGCUGCUGGGUAUUCAGCCACCACACUCUUCACUGCUUGGACCUAGUUGGUGUUUGUGUUCUGUAAAGUGAGCACGUUGUCCUCCCAAGAGAAGCACUU: 0.783

Study 3
Target: Ras GTPase-activating protein-binding protein 1, full length (G3BP1, Homo sapiens, UniProt Q13283)
UniProt Q13283, sequence (whole entry, looked up): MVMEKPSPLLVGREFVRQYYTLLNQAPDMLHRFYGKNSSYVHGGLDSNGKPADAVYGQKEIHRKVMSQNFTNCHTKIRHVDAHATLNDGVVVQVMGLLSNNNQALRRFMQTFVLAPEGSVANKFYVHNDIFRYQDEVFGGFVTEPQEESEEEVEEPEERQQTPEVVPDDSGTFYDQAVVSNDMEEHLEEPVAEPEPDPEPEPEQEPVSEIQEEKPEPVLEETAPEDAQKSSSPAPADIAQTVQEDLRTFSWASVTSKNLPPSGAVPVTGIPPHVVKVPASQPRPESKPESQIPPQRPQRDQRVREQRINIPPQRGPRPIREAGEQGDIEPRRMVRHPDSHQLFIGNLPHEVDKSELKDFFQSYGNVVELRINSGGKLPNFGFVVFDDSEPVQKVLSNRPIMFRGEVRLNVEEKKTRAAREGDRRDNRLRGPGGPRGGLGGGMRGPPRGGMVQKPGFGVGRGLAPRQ
Method: RNA Bind-n-Seq
Form: RNA
Matrix: in vitro
Concentration: 200 nM
Setting: whole 134-nt RNA, ends assumed
With: 150 mM LiCl
Baseline: input library
Reading: higher = stronger binding
Quantity: log2 enrichment
Library: 7-deaza-guanosine replaces G
All sequences stand within: GGGAGUUCUACAGUCCGACGAUC … UGGAAUUCUCGGGUGUCAAGG
GUCCUGUGCUACACAUCGUAUGUACCGAAUCGGCCCCCGGGGCCCCCGGGGCCCCCGGGAAAGUAUUAUGUUACGCCGUUCGGAUCUGCA: -0.746
CCUGUGCUACACAUCGUAUGUACCGAAUCGGGGAAAAAGGGGUUUUUUUGGGGAAAGGGGAAAGUAUUAUGUUACGCCGUUCGGAUCUGC: -0.449
CCUGUGCUACACAUCGUAUGUACCGAAUCGGGGAAAAAAAGGGGAAAAAAAGGGGAGGGGAAAGUAUUAUGUUACGCCGUUCGGAUCUGC: 0.924
UGGCCCUGGUGGCAUGCGGGGAGGAAGAGGUGGCCUCAUGGAUCGUGGUGGUCCCGGUGGAAUGUUCAGAGGUGGCCUUGGUGGAGACAG: 0.781
UCAAGUCCUGUGCUACACAUCGUAUGUACCGAAUCGGUUUUUUUGGUGGUUUGGAAAGUAUUAUGUUACGCCGUUCGGAUCUGCACUUCC: -0.68
ACCAUGCAGGUGGGCAUCUUUGGGAAGUGGGGCAAGGGGGGGAUAGAGAGGGGGGUAACACUUUGGGAACAGGUGGUCCCAGGUCGUUUC: 0.151
ACCAUGCAGGCGGGCAUCUUUGGGAAGUGGGGCAAGGGGGGGAUAGGGAGGGGGGUAACACUUUGGGAACAGGUGGUCCCAGGUCGUUUC: 0.0964
AGUCCUGUGCUACACAUCGUAUGUACCGAAUCGGGGUGGGGAAAAAGGGGUUUGGGGAAAGUAUUAUGUUACGCCGUUCGGAUCUGCACU: -0.791
UCGCCCUGGUGGCAUGCGGGGAGGAAGAGGUGGCCUCAUGGAUCGUGGUGGUCCCGGUGGAAUGUUCAGAGGUGGCCGUGGUGGAGACAG: 0.517
CUCAAGUCCUGUGCUACACAUCGUAUGUACCGAAUCGGAGGAAAAAGGUUUGGAAAGUAUUAUGUUACGCCGUUCGGAUCUGCACUUCCA: -0.452
UCAAGUCCUGUGCUACACAUCGUAUGUACCGAAUCGGGUUGGGUUGGGGUUGGGGAAAGUAUUAUGUUACGCCGUUCGGAUCUGCACUUC: -0.0654

Study 4
Target: RING finger protein unkempt homolog, zinc fingers 1-6, GST-SBP tag (UNK, Homo sapiens, UniProt Q9C0B0, residues 30-357)
Method: RNA Bind-n-Seq
Form: RNA
Matrix: in vitro
Concentration: not given
Setting: RNA with constant flanks, human and mouse sites, ends assumed
Baseline: input RNA pool
Reading: higher = stronger binding
Quantity: bound/input enrichment
All sequences stand within: GGGAGUUCUACAGUCCGACGAUC … CAACAGAGGAUUGAGCAUCA
Construct (chain): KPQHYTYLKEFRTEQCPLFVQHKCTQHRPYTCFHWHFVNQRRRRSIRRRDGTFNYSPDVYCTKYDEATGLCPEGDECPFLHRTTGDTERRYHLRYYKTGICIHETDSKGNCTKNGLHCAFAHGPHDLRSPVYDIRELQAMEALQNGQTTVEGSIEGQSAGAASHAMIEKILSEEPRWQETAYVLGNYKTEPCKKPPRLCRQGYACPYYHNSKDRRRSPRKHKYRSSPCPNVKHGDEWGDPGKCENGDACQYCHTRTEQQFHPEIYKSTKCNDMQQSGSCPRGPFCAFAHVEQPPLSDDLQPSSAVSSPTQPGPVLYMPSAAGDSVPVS
ACAGGAAAAAGUGGACUGGCAGGAACAAUUAAUUUAAGUGAAAGACGUUUAUUUUUUACCACUGCCAGUGCUCAUUUAAAAGCUGGCUGCCCAAUGUUGGCUUUGGAAGUAUUAUCAAAG: 0.228 ratio
AGCAUUUGAUUAUUUUUUUUAAAUACACUCUCUUAUUUUUCUACUUGUUUUUUUGUUAAUCAUAGCAGGAUAUGACAACUCUUAUUUGAAUUGAUUUUUUCAUCUAAUGUAAUAAUGGAA: 2.66 ratio
UUGCUGUCUAUUUGUUCCCUUUUGACAGACUGCAACCCUGCGGAUCCUCUGGUUGGAAGCAUAGCCACUCAGUAUUUGACCAACAGAGCAGAACACGACAGGAUAGCCAGACAGUGGACC: 0.184 ratio
UACUUGACGAAGGCCUACGACCUCGUCGUGGACUGGCCCGUGACCCUCGUGAGAGAGUUUAUUGAACGACAGCAUGCCAAGAACCGAACCUACUACUACCACCGACAGUACCGUCGAGUG: 0.0454 ratio
UCUGAUGUCUCCCAGAUGAAUGAUAGACUGGGAGAAGAUGAAUCCUUGCUAAUGAAAUUAUAUAGCUUCCUCCUAAACGAUUCCCCUUUGAAUCCACUACUUGCCAGUUUCUUCAGCAAG: 0.271 ratio
CCCGUUGUAUACAAAUACCUAACAGAGAAGGCAGUGAAAUGGUCACAGCAGGUAGAGCGUCACAGAGAACAUCUUAUUAACUACAUUAUAUUUUUGAGGAUCACACCGUUUCUUCCUAAU: 1.53 ratio
AAGGGCCCGGAGGGUGUCUCCCCAAGCCAGGCACACCUGCACAAACCCAGAGCCGACCCUCAGCUGCCUUCUAGGACACCUGUGCAGGGUCCCAGACCCAGGCCCCAGAGCAGCCCAGGC: 0.136 ratio
AUCAACACCCAGGAACAGGGACCAGAUGAAGGAGAGGAGAAGGCAGCAGGAGAGGCUGAGGAGGAUGAUGAAGACGAAGAGGAGGAGGAGGAGGAGGAGGACUUGUCUUCUCCUCCAGGG: 0.281 ratio
AUUCAGGCACAACUGACUGGUUCACAGCACUCCUUACAUAGUUAUCUAUCAAAUUCAAGUGUAGUUAAUUUUCAGGAAACAACCAGGCAGUCAUCUUUAUCCUGUAGCCCAAUUGGAGAU: 5.74 ratio
GAAACUAAACAUCACAGCAAGCUCUAUCUCUGAGCUAUAAUUUGUUUUUAAUGCAAAGACACUAGUUUGAUAAUAUAUACUGUAAUCCUGAAACAUUUGUGUUACUUACCUUUGGAGGUA: 0.421 ratio
AGCGACUCCUAUAAUUUCUAAUAUUUAAUUUGUUCUUUUAUAUAUAUAUAUUUUUUUGUAAAUCUAUUAUGACAGUUUACAACUAAGCCUUUUUAUAAACUUUUUUUAAAAGUGAUACUU: 126 ratio

Repeated from above (study 1):
AATGGCGG: -0.254
GGCAGGAA: -0.09
ACCCACTG: -0.249
ACTGCTCG: -0.0756
CGGCTTCC: -0.302
